Measurements from different studies.
Every numbered part comes from another study and shows a few of its results, in no order. “And” joins repeats or separate records; there may be more than shown. ± marks the error that the study gave.
Chain of UniProt P41145 (whole entry, looked up): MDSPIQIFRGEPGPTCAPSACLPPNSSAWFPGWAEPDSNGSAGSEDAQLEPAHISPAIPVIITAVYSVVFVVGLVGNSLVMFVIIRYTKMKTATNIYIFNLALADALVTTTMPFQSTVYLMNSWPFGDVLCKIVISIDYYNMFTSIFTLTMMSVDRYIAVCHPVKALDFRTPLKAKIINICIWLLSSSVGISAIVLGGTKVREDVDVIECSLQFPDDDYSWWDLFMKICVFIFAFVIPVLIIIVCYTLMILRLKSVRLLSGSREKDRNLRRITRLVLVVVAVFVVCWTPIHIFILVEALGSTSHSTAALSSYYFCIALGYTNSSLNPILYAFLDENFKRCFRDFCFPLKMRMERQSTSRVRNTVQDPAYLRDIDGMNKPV
Chain of UniProt P10632 (whole entry, looked up): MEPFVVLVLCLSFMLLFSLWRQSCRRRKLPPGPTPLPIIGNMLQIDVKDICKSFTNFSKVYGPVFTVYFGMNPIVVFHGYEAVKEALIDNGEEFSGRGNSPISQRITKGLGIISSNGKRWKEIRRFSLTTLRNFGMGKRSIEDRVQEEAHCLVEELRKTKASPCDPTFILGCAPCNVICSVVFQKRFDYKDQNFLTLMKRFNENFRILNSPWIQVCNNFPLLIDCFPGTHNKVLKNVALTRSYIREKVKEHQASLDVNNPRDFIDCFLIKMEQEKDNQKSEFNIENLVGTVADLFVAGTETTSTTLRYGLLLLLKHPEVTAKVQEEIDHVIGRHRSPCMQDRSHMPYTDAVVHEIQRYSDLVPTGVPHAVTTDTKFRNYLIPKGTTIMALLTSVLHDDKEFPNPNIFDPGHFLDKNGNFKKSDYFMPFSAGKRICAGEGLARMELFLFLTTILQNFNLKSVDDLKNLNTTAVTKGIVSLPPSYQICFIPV
Chain of UniProt P10635 (whole entry, looked up): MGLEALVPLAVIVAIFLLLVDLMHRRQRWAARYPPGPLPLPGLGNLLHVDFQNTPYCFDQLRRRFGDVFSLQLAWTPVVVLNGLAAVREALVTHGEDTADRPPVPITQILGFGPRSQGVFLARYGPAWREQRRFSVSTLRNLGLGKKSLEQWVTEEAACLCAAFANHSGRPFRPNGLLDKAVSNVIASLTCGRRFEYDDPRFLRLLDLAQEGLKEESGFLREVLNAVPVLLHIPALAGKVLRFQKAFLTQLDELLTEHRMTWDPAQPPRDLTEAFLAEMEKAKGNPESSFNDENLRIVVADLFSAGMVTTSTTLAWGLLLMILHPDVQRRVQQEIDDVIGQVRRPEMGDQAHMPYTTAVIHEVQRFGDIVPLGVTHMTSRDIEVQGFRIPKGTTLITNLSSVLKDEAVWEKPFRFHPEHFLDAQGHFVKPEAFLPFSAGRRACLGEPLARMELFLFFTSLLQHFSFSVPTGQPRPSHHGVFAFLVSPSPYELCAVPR
Chain of UniProt P05177 (whole entry, looked up): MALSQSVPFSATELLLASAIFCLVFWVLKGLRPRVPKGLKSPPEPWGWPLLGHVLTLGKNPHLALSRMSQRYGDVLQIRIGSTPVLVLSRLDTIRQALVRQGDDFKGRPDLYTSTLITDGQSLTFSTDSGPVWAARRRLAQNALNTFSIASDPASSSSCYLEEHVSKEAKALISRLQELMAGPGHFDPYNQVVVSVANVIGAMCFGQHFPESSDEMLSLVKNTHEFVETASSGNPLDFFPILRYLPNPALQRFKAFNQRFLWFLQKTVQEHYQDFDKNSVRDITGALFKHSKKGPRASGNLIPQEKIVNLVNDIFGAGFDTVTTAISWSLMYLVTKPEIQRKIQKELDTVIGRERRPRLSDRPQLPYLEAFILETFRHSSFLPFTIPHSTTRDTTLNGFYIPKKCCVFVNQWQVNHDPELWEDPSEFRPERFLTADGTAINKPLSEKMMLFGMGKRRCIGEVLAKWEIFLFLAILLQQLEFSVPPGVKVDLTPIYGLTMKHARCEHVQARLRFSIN

Series 1
SMILES: CC(C)(C)n1nc(-c2ccc(Cl)cc2)c2c(N)ncnc21
Cell line: L929
Method: CCK-8
| test | setting | viability |
| --- | --- | --- |
| necroptosis protection | 0.556 µM, together with: TNF-α-induced | 29.1% |
| necroptosis protection | 0.625 µM, together with: TNF-α-induced | 45.1% |
|  | 12.5 µM | 64.5% and 67.9% and 56.9% and 58.5% and 68.5% |
| necroptosis protection | 0.021 µM, together with: TNF-α-induced | 15.1% |
| necroptosis protection | 15 µM, together with: TNF-α-induced | 63.1% |
|  | 12.5 µM, together with: zVAD | 64.6% and 78.8% and 62.9% and 81.3% and 79.9% |

Series 2
SMILES: Cn1cc(-c2cccc(CN3CCC4(CC3)COc3c4ccc4c3CN([C@H]3CCC(=O)NC3=O)C4=O)c2)cn1
Effect on: enzyme activity
Medium: human liver microsomes
Baseline: negative control
CYP2B6: Cytochrome P450 2B6 (CYP2B6, Homo sapiens, UniProt P20813)
Chain of UniProt P20813 (whole entry, looked up): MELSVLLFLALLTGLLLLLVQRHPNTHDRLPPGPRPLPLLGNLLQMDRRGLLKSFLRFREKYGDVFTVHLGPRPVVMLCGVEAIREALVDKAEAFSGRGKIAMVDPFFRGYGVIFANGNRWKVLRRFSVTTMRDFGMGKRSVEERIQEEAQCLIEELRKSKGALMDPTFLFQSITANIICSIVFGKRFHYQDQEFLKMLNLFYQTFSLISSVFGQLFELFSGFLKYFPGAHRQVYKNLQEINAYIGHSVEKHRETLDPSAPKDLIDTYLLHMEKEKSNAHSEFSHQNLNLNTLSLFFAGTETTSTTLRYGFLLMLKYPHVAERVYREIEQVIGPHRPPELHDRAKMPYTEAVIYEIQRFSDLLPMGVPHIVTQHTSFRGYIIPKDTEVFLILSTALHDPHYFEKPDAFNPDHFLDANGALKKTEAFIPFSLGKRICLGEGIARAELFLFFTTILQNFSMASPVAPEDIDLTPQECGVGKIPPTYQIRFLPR
CYP3A4: Cytochrome P450 3A4 (CYP3A4, Homo sapiens, UniProt P08684)
Chain of UniProt P08684 (whole entry, looked up): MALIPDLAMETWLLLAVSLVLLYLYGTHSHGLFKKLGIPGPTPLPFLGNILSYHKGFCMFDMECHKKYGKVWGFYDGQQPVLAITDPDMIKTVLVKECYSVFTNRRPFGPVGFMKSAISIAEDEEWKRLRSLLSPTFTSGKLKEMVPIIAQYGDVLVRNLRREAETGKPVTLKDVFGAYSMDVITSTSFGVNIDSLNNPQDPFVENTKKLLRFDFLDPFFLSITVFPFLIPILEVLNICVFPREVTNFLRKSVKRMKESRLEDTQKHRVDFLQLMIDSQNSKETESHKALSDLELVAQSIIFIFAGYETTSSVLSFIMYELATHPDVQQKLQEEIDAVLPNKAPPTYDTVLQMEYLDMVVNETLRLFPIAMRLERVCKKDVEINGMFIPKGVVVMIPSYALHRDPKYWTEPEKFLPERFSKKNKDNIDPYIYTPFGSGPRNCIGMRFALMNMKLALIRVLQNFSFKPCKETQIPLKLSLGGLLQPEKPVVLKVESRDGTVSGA
CYP2C19: Cytochrome P450 2C19 (CYP2C19, Homo sapiens, UniProt P33261)
Chain of UniProt P33261 (whole entry, looked up): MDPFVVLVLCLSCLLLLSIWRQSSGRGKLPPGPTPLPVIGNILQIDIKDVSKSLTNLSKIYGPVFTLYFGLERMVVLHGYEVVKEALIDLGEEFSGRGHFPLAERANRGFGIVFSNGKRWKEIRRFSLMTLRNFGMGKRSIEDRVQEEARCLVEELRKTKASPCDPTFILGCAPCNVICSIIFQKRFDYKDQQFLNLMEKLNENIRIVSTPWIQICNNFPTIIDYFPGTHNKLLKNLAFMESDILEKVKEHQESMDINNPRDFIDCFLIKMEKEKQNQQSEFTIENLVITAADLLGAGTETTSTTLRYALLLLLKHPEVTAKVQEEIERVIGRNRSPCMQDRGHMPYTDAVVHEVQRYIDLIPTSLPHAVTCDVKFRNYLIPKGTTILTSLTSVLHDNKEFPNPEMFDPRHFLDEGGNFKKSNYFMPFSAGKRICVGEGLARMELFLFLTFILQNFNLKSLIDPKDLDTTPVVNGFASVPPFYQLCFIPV
| target | setting | remaining activity [%] |
| --- | --- | --- |
| CYP2B6 | 0.37 µM | 84.5 |
| Cytochrome P450 2D6 (CYP2D6, Homo sapiens, UniProt P10635) | 10.00 µM | 89.7 |
| CYP3A4 | 0.12 µM, together with: testosterone substrate | 98 |
| CYP2B6 | 0.0137 µM | 89.7 |
| CYP3A4 | 0.37 µM, together with: midazolam substrate | 92.7 |
| CYP2C19 | 10.00 µM | 87.1 |
| Cytochrome P450 1A2 (CYP1A2, Homo sapiens, UniProt P05177) | 0.37 µM | 87.7 |
| CYP2C19 | 3.33 µM | 98.1 |
| CYP2B6 | 10.00 µM | 76.7 |
| Cytochrome P450 2C8 (CYP2C8, Homo sapiens, UniProt P10632) | 3.33 µM | 115 |

Further values, each from its own experiment
| SMILES | tested on | test | system | setting | scale | measurement | value |
| --- | --- | --- | --- | --- | --- | --- | --- |
| N=C(N)NCCCCCCN1CC[C@]23c4c5ccc(O)c4O[C@H]2c2[nH]c4ccccc4c2C[C@@]3(O)[C@H]1C5 | Kappa-type opioid receptor, with Gi1 (OPRK1, Homo sapiens, UniProt P41145) |  | human cells |  |  | Emax | 36 ± 5% |
| COc1cc(C(=O)OCCCN2CCCN(CCCOC(=O)c3cc(OC)c(OC)c(OCc4ccc([N+](=O)[O-])cc4)c3)CC2)cc(OC)c1OC |  | LC-MS/MS | CD-1 mouse, male, plasma | subcutaneous, 30 mg/kg |  | plasma concentration | ~0.1 µg/mL |
| C#CCN1C(=O)C(O)(C(=O)O)Oc2cc(F)ccc21 (centres unmarked) | Arabidopsis thaliana |  | 2-week-old plants | foliar spray, 200 µg/mL, 20 days, postemergence | baseline: untreated | fresh weight inhibition | 59.7% and 59% and 58.1% |
| N=C(N)NCCCCCCN1CCC23c4c5ccc(O)c4OC2c2nc4ccccc4cc2CC3(O)C1C5 (centres unmarked) |  | modified Racine scale | C57BL/6J mice, male | intracerebroventricular, 100 nmol, 55 min | direction not given | seizure score | 0 |

Excerpt of the above (series 2):
| target | setting | remaining activity [%] |
| --- | --- | --- |
| CYP2B6 | 0.37 µM | 84.5 |
| Cytochrome P450 2D6 (CYP2D6, Homo sapiens, UniProt P10635) | 10.00 µM | 89.7 |
